Assay results from different studies.
Parts stem from different laboratories: compare values within a part only.
UniProt Q13470, sequence (whole entry, looked up): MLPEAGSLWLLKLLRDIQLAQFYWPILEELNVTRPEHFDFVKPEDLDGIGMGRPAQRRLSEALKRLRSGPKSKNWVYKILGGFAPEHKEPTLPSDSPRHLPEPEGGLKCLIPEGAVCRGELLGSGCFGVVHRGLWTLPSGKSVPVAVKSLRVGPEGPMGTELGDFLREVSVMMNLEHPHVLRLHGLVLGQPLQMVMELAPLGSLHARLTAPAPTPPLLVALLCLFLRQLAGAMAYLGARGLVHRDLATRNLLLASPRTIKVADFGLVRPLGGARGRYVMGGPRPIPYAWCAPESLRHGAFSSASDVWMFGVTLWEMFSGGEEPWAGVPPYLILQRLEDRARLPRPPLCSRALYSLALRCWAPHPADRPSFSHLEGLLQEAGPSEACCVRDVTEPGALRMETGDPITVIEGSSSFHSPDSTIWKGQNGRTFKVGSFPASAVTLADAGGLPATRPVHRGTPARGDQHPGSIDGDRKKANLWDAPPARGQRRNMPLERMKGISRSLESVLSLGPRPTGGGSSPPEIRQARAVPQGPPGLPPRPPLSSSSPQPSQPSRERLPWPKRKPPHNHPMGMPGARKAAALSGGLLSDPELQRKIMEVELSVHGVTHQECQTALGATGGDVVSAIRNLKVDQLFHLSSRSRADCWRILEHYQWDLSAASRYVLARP
UniProt P50750, sequence (whole entry, looked up): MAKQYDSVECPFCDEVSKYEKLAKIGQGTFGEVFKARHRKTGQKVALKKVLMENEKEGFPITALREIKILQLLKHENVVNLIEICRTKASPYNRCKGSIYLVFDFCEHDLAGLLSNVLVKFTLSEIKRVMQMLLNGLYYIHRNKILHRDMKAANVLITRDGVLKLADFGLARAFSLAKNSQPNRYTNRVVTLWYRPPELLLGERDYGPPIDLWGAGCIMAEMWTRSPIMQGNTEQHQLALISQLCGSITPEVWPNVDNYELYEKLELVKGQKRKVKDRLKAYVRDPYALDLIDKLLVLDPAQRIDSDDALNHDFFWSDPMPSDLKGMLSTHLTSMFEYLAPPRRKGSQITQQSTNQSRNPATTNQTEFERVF
UniProt Q16659, sequence (whole entry, looked up): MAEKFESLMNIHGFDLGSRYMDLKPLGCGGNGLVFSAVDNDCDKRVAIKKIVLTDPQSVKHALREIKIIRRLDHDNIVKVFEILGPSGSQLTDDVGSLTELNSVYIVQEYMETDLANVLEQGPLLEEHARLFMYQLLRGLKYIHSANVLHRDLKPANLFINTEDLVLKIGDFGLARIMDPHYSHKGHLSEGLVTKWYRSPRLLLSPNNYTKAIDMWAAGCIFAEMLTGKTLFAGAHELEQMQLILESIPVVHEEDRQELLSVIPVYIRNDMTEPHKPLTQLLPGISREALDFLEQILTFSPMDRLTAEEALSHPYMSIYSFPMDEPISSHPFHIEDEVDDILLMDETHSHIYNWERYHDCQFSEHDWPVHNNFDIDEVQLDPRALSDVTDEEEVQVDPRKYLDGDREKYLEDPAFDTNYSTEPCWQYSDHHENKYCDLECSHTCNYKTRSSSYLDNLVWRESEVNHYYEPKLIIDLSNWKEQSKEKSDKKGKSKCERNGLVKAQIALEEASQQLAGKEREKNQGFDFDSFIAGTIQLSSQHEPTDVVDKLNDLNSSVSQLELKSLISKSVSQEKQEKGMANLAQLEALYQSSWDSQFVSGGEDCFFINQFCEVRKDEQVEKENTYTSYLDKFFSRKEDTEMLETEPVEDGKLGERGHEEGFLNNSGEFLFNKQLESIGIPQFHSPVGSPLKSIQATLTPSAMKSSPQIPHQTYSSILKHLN
UniProt P51813, sequence (whole entry, looked up): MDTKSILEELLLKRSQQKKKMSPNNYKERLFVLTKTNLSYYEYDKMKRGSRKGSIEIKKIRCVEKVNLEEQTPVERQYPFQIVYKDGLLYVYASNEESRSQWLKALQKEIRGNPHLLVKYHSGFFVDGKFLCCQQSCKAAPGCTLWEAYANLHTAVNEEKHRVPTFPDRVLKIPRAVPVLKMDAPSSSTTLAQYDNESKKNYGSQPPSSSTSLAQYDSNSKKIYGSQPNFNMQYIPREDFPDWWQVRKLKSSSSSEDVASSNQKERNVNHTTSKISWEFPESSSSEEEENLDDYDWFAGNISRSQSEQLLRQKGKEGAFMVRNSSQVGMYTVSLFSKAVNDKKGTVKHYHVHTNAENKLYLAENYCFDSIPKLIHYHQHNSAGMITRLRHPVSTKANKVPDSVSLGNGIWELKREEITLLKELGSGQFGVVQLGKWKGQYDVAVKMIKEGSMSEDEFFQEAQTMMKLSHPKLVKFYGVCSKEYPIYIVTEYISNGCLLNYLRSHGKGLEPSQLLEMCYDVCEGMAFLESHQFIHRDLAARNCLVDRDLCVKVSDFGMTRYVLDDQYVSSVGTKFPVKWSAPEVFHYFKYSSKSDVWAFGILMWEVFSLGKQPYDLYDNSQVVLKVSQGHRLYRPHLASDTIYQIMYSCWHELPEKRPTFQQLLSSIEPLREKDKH
UniProt P04049, sequence (whole entry, looked up): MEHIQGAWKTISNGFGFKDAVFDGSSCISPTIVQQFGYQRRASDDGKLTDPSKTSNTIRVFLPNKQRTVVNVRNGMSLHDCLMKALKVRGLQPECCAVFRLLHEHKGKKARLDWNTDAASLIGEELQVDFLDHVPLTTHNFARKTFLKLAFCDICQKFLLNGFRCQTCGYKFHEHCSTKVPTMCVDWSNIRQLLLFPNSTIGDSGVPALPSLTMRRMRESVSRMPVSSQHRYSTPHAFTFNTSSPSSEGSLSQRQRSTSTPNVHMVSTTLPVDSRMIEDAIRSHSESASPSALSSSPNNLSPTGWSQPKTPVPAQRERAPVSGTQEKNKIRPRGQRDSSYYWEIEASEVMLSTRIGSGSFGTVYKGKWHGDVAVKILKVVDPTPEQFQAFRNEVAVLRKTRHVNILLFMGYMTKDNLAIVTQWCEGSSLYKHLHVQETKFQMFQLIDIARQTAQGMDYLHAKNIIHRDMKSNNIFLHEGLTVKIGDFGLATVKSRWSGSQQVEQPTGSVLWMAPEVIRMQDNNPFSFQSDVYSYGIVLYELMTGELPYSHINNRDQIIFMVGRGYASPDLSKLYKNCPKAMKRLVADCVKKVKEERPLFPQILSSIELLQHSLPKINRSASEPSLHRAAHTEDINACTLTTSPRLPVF
UniProt Q13043, sequence (whole entry, looked up): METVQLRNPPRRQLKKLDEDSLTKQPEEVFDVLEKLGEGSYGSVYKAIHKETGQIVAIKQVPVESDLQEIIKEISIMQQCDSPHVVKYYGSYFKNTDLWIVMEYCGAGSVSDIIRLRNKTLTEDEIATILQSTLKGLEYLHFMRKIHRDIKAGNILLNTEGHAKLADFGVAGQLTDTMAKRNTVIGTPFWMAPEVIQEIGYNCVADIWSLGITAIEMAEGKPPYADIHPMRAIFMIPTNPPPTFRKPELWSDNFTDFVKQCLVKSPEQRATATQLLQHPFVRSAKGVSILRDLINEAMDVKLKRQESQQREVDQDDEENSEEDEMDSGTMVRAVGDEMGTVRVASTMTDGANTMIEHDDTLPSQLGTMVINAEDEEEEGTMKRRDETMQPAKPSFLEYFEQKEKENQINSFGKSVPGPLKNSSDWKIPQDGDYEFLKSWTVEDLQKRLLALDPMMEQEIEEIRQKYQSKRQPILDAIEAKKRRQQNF
UniProt O60674, sequence (whole entry, looked up): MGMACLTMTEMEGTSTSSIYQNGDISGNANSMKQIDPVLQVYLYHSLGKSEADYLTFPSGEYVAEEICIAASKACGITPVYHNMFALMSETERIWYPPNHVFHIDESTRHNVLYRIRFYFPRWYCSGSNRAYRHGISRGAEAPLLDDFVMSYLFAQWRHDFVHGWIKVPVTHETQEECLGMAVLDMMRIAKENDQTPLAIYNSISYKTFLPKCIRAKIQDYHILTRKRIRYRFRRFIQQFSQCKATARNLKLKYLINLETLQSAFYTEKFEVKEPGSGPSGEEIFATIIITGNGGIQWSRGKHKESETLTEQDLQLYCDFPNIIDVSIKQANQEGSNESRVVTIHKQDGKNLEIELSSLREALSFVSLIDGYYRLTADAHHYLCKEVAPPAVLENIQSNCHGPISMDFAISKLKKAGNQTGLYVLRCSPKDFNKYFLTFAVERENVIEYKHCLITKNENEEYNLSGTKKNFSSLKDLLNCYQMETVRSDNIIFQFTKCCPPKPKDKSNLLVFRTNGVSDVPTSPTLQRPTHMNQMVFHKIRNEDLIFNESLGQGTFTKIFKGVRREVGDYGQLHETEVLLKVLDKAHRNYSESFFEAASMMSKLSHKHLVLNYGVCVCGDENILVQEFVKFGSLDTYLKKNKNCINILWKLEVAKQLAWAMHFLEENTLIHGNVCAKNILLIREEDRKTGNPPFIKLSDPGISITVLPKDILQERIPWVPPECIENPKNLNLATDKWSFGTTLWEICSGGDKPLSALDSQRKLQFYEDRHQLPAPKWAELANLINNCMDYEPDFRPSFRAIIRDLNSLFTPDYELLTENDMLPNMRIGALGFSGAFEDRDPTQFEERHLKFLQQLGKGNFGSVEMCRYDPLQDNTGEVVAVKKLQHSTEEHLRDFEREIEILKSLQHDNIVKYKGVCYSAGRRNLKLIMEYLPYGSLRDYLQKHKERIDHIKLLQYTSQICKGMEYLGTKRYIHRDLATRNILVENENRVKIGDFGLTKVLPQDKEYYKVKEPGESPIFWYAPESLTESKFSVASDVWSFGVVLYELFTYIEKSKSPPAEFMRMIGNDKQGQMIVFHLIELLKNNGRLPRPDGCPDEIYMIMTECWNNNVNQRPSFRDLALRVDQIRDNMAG
UniProt Q8TDX7, sequence (whole entry, looked up): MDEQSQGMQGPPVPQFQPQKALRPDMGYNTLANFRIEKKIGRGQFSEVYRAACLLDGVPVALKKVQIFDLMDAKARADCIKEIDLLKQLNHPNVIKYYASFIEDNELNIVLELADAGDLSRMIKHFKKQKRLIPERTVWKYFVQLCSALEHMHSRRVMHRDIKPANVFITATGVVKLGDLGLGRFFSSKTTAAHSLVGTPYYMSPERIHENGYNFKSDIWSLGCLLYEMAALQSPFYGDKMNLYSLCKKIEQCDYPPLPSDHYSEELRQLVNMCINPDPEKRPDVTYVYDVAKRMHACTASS

Block 1 — method: KINOMEscan; tested at: 10 µM; baseline: DMSO control; direction: lower = stronger binding
Compound: COc1cc(C(=O)N2CCC(N3CCN(C)CC3)CC2)ccc1Nc1ncc2c(n1)N(C)c1ccccc1C(=O)N2C
target	binding [%]
MAPKAPK5	97
RIOK1	100
PIK4CB	95
EPHB3	100
PHKG1	54
EGFR	84
ACVR1	98
NEK9	100
OSR1	88
NDR1	96

Block 2 — effect on: enzyme activity; action: inhibitor; tested at: 0.5 µM; baseline: control
Target: Dual specificity protein kinase TTK (TTK, Homo sapiens, UniProt P33981)
Construct (P33981 1-857): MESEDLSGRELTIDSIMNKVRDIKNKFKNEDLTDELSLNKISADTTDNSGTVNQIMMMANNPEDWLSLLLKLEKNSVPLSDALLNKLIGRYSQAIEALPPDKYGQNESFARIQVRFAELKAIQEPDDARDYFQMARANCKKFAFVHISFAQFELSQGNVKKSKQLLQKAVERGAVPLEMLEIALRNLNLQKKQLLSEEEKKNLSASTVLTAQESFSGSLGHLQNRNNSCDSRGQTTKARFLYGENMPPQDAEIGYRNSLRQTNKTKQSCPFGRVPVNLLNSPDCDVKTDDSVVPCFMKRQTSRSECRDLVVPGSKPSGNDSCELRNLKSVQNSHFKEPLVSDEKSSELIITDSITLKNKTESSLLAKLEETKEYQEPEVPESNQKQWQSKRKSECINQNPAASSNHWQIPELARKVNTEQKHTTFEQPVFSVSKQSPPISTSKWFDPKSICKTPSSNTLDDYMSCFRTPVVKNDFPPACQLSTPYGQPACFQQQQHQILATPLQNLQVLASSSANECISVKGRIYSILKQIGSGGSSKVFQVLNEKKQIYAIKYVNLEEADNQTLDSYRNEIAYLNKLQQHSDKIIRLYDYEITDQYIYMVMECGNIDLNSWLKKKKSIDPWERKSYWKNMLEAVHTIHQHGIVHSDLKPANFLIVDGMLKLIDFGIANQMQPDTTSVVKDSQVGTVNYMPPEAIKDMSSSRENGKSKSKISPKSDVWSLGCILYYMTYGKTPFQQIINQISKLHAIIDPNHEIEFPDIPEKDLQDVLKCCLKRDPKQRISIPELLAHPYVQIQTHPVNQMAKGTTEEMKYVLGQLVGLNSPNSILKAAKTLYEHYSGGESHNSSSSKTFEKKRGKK
Structure (SMILES)	remaining activity
CCC(=O)Nc1ccc2ncnc(Nc3cccc(Br)c3)c2c1	113%
Cc1ccc(NC(=O)c2ccc(CN3CCN(C)CC3)cc2)cc1Nc1nccc(-c2cccnc2)n1	102%
O=C(Nc1ccc(Cl)cc1)c1ccccc1NCc1ccncc1	102%
CC(C)[C@H](CO)Nc1nc(Nc2cccc(Cl)c2)c2ncn(C(C)C)c2n1	116%
Nc1[nH]nc2nnc(-c3c(-c4ccccc4)nn4ccccc34)cc12	110%
CN(C)CCCn1cc(C2=C(c3c[nH]c4ccccc34)C(=O)NC2=O)c2ccccc21	98.2%
COc1ccc(-c2cnc3c(-c4ccsc4)cnn3c2)cc1	94.2%

Block 3 — effect on: cell-free assay; method: competition with immobilised ligand; tested at: 1 µM
Structure (SMILES): O=C(NCc1ncc(C(F)(F)F)cc1Cl)c1ccc2c(c1)C1(CCS(=O)(=O)CC1)[C@@H](C1CC1)N2S(=O)(=O)c1ccc(F)cc1
target	remaining binding [%]
Serine/threonine-protein kinase 3 (STK3, Homo sapiens, UniProt Q13188)	87
Tyrosine-protein kinase JAK2, JH1 (JAK2, Homo sapiens, UniProt O60674)	70
Ephrin type-B receptor 4 (EPHB4, Homo sapiens, UniProt P54760)	94
Mitogen-activated protein kinase 6 (MAPK6, Homo sapiens, UniProt Q16659)	86
Non-receptor tyrosine-protein kinase TNK1 (TNK1, Homo sapiens, UniProt Q13470)	88
Leucine-rich repeat serine/threonine-protein kinase 2 (LRRK2, Homo sapiens, UniProt Q5S007)	98
Cytoplasmic tyrosine-protein kinase BMX (BMX, Homo sapiens, UniProt P51813)	92
Dual specificity tyrosine-phosphorylation-regulated kinase 1A (DYRK1A, Homo sapiens, UniProt Q13627)	85
Serine/threonine-protein kinase 4 (STK4, Homo sapiens, UniProt Q13043)	86
Receptor-type tyrosine-protein kinase FLT3 (FLT3, Homo sapiens, UniProt P36888, F691L/ITD)	58
Ephrin type-B receptor 6 (EPHB6, Homo sapiens, UniProt O15197)	94
Serine/threonine-protein kinase Nek7 (NEK7, Homo sapiens, UniProt Q8TDX7)	65
RAF proto-oncogene serine/threonine-protein kinase (RAF1, Homo sapiens, UniProt P04049)	100
Cyclin-dependent kinase 9 (CDK9, Homo sapiens, UniProt P50750)	100

Block 4 — target: His6 tag; method: AlphaScreen counter screen; tested at: concentration not given
SMILES	inhibition
Cn1cnc2c(F)c(Nc3ccc(Br)cc3F)c(C(=O)NOCCO)cc21	5%
NC(=O)NC(=O)CSc1nc2ccccc2c(=O)n1-c1ccccc1F	1.4%
COc1cccc2cc(-c3nc([C@H]4CC[C@H](C(=O)O)CC4)n4ncnc(N)c34)[nH]c12	4.4%
O=C(CSc1ccc2nnc(-c3cccc(F)c3)n2n1)Nc1cccc(F)c1	-7.85%
OC1CCN(Cc2c(-c3ccco3)[nH]c3ncccc23)CC1	9.9%
O=C(O)CSc1nnc(-c2ccc(Cl)cc2)n1-c1ccccc1	9.15%
N#CC(=Cc1ccncc1)c1nc2ccccc2s1	12.3%
CC(C)[C@H](CO)Nc1nc(Nc2ccc(C(=O)O)c(Cl)c2)c2ncn(C(C)C)c2n1	-5.4%
CCN(CC)CCCCNc1ncc2cc(-c3cc(OC)cc(OC)c3)c(NC(=O)NC(C)(C)C)nc2n1	2.75%
COc1cc(C=C2SC(=O)NC2=O)cc(OC)c1O	0.05%

Excerpt of the above (block 1):
target	binding [%]
ACVR1	98
MAPKAPK5	97
OSR1	88
PHKG1	54
EGFR	84
EPHB3	100
